# Published values gathered from unrelated publications.
# Parts stem from different laboratories: compare values within a part only.
# Sequence of UniProt Q86Z02 (whole entry, looked up): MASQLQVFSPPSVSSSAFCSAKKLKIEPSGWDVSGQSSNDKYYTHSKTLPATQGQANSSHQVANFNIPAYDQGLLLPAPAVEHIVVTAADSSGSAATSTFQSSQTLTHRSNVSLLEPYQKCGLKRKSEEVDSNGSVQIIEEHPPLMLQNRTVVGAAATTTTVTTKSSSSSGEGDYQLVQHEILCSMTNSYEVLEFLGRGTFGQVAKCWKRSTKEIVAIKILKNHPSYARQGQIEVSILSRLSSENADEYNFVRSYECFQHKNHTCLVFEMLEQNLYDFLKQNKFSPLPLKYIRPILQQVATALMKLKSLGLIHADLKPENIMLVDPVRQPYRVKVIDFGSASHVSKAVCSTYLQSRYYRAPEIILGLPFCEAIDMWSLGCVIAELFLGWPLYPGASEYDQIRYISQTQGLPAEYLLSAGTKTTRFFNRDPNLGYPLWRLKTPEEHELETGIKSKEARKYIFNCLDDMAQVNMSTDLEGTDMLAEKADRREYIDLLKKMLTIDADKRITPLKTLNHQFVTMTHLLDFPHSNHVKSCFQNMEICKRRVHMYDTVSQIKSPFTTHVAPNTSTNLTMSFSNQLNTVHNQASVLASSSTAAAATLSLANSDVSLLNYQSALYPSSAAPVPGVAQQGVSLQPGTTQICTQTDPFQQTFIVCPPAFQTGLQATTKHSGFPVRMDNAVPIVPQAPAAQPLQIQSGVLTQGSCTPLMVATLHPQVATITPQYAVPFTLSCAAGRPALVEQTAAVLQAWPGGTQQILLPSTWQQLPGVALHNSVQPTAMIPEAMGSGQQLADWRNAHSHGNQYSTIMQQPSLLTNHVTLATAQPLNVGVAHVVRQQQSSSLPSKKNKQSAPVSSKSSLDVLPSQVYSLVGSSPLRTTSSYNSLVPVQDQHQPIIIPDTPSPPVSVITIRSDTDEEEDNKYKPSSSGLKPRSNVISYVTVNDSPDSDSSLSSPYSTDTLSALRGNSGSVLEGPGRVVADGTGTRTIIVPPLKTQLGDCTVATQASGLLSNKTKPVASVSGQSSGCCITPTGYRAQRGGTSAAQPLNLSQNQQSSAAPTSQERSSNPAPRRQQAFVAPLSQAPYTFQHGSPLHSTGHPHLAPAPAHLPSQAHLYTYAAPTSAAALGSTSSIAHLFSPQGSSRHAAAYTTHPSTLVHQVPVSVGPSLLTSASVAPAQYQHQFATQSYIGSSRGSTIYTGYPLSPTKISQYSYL
# Sequence of UniProt Q16512 (whole entry, looked up): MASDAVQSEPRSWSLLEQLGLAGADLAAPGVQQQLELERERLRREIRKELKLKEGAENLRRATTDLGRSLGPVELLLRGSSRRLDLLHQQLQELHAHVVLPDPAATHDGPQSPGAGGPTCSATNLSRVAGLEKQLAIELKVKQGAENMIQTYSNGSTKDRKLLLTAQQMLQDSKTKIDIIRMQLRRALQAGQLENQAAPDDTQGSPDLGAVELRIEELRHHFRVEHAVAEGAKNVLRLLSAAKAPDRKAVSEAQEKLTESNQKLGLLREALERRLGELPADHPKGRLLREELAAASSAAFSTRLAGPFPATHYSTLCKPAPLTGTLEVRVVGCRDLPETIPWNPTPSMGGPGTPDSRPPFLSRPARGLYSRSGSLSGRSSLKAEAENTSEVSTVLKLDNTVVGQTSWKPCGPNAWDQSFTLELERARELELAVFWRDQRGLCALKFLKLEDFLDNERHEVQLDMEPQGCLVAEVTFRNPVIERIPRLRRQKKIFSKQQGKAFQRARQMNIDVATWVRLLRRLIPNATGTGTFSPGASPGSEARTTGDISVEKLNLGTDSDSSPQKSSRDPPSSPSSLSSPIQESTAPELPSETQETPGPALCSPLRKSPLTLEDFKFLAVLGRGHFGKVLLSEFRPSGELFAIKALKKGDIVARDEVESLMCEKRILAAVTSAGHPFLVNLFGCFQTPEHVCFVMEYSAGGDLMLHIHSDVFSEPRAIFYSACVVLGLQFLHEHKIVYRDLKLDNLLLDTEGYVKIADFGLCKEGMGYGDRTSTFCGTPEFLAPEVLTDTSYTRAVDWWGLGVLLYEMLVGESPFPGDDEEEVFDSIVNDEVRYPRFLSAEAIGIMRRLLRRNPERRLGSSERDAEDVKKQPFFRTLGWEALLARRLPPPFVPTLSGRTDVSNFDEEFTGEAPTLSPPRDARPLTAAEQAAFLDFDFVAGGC
# Sequence of UniProt Q5VT25 (whole entry, looked up): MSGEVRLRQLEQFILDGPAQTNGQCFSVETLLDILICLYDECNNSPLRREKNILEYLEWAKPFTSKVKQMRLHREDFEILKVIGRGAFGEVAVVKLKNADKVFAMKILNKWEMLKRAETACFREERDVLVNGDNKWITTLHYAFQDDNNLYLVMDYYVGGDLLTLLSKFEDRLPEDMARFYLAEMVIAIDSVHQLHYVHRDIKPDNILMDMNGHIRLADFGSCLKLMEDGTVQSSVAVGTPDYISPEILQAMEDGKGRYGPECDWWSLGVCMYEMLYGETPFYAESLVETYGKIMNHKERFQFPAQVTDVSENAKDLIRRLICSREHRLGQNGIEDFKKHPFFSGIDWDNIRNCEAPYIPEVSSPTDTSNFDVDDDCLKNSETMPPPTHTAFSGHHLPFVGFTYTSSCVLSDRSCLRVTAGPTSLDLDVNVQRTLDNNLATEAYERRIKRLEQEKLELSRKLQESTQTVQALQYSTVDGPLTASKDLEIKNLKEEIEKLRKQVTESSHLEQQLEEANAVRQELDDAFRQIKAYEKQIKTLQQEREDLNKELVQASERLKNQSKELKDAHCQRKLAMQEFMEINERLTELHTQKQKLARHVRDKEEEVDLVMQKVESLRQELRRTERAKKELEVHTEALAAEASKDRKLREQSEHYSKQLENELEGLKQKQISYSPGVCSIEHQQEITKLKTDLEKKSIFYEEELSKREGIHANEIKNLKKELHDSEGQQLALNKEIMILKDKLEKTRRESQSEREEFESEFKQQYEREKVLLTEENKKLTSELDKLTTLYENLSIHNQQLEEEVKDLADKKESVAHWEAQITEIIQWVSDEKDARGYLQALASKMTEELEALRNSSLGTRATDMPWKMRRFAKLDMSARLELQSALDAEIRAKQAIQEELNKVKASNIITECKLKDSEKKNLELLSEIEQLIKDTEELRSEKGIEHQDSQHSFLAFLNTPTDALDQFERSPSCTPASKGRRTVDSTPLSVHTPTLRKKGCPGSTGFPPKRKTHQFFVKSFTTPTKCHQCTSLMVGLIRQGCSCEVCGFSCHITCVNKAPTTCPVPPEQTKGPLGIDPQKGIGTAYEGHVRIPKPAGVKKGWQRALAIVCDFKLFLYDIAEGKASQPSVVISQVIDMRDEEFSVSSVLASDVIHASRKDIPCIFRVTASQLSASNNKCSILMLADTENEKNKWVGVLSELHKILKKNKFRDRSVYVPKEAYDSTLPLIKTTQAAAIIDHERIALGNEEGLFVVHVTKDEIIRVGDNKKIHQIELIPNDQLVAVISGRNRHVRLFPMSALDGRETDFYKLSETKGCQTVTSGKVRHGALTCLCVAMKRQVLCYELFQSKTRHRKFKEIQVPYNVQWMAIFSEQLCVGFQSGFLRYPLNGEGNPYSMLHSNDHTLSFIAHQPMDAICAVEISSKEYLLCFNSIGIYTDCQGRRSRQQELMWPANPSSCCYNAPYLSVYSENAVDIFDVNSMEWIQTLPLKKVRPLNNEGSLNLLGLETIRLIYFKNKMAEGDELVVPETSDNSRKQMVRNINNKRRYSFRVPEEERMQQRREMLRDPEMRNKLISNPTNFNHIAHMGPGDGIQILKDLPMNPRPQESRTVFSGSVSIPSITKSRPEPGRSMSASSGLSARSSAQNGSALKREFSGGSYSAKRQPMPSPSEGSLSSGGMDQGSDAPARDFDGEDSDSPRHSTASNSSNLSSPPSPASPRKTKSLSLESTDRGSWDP
# Sequence of UniProt Q9P0L2 (whole entry, looked up): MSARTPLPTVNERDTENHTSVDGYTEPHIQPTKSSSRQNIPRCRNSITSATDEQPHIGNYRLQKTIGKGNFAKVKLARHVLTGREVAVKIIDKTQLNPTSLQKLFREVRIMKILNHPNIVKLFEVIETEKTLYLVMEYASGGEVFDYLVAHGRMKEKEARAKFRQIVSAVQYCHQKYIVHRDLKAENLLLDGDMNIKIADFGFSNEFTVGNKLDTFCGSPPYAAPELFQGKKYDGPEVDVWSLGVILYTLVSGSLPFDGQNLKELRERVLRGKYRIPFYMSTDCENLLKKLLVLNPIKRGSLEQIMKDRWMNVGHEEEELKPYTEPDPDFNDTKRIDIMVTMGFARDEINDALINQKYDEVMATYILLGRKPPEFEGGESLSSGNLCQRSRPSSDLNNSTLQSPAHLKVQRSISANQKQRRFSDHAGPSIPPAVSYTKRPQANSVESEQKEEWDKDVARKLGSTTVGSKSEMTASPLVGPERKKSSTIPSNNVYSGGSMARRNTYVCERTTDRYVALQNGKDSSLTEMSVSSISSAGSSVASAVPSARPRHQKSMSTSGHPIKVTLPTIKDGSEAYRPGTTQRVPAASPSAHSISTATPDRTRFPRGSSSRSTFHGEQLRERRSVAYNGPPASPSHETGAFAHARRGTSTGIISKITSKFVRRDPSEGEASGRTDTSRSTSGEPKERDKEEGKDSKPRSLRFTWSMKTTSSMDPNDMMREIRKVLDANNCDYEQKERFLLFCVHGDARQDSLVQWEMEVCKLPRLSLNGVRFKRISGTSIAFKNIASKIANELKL
# Sequence of UniProt P51817 (whole entry, looked up): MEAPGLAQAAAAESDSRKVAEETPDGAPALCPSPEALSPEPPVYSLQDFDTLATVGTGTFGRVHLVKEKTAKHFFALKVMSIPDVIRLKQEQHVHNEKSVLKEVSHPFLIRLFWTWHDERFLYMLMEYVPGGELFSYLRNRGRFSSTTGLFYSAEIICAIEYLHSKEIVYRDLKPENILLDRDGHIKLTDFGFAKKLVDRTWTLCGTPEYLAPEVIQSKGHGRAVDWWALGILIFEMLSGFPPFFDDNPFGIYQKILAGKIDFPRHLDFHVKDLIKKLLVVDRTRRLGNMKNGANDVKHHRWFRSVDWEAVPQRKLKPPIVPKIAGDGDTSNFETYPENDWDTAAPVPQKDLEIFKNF

# Block 1
# Species: mouse
# Medium: microsomes or S9
# Concentration: 2 µM
# Time: 0.5 h
SMILES,remaining compound
CCc1ncnc(Nc2cnn(Cc3nnc4n3CCCC4)c2)c1F,85.6%
CC(c1ccncn1)N(C)C(=O)c1ccc(OC2CCN(CCc3ccccc3)CC2)cc1 (stereo not shown),35.4%
Cc1ccc(OCCOCCN2CC(C)OC(C)C2)c(Br)c1 (stereo not shown),0.143%
c1cc(-c2ncnc3sccc23)c2cc[nH]c2n1,6.29%
O=C(Cc1noc2ccccc12)N1CCn2c1nc1ccccc12,0.0408%
CCOC(=O)c1cccc(NC(=O)CC2C(=O)N(c3ccc(Cl)cc3)C(=O)N2C2CCCC2)c1 (stereo not shown),4.59%
CCc1ccccc1NC(=O)NCCNc1nc(C)cc(N2CCCCC2)n1,0.699%
O=C1CC(c2ccc(S(=O)(=O)N3CCOC(COc4ccccc4)C3)cc2)CN1 (stereo not shown),54.4%
CCc1nnc(S(=O)(=O)C(C)C(=O)NCC2CCCCC2)[nH]1 (stereo not shown),> 100%
O=C(c1ccccc1)c1cccc2c1N(C(=O)c1ccccc1)CC21CCCCC1,0.652%
COc1c(C)cnc(Cn2cnc3oc(C)c(C)c3c2=O)c1C,0.111%
O=C(OCc1cc(Cl)cc2c1OCOC2)c1cc2ccccc2[nH]1,67.9%
O=C(COc1ccccc1-c1nnc[nH]1)N1CCc2ccccc21,2.82%

# Block 2
# Compound: O=C(Nc1cccnn1)N1CCC(=Cc2cccc(Oc3ccc(C(F)(F)F)cn3)c2)CC1
# Effect on: cell-free assay
# Method: competition with immobilised ligand
# Concentration: 1 µM
target,remaining binding
"Serine/threonine-protein kinase ULK2 (ULK2, Homo sapiens, UniProt Q8IYT8)",100%
"Dual specificity tyrosine-phosphorylation-regulated kinase 2 (DYRK2, Homo sapiens, UniProt Q92630)",81%
"Serine/threonine-protein kinase MARK1 (MARK1, Homo sapiens, UniProt Q9P0L2)",84%
"Casein kinase I isoform gamma-3 (CSNK1G3, Homo sapiens, UniProt Q9Y6M4)",100%
"Serine/threonine-protein kinase Chk2 (CHEK2, Homo sapiens, UniProt O96017)",94%
"Mitogen-activated protein kinase 8 (MAPK8, Homo sapiens, UniProt P45983)",100%
"Eukaryotic translation initiation factor 2-alpha kinase 1 (EIF2AK1, Homo sapiens, UniProt Q9BQI3)",100%
"Calcium/calmodulin-dependent protein kinase type 1D (CAMK1D, Homo sapiens, UniProt Q8IU85)",97%
"NT-3 growth factor receptor (NTRK3, Homo sapiens, UniProt Q16288)",100%
"STE20-like serine/threonine-protein kinase (SLK, Homo sapiens, UniProt Q9H2G2)",74%
"Ribosomal protein S6 kinase alpha-6, N-terminal kinase domain (RPS6KA6, Homo sapiens, UniProt Q9UK32)",100%
"Platelet-derived growth factor receptor alpha (PDGFRA, Homo sapiens, UniProt P16234)",100%
"Tyrosine-protein kinase FRK (FRK, Homo sapiens, UniProt P42685)",100%
"Calcium/calmodulin-dependent protein kinase type II subunit gamma (CAMK2G, Homo sapiens, UniProt Q13555)",74%
"5'-AMP-activated protein kinase catalytic subunit alpha-1 (PRKAA1, Homo sapiens, UniProt Q13131)",88%
"Serine/threonine-protein kinase PLK4 (PLK4, Homo sapiens, UniProt O00444)",100%
"Phosphatidylinositol 3-kinase C2 domain-containing subunit gamma (PIK3C2G, Homo sapiens, UniProt O75747)",95%

# Block 3
# Structure (SMILES): CCC(=O)Nc1ccc2ncnc(Nc3cccc(Br)c3)c2c1
# Effect on: enzyme activity
# Mode: inhibitor
# Concentration: 0.5 µM
# Reference: control
target,remaining activity [%]
"Tyrosine-protein kinase Fer (FER, Homo sapiens, UniProt P16591)",95.6
"RAC-alpha serine/threonine-protein kinase (AKT1, Homo sapiens, UniProt P31749)",95.8
"Serine/threonine-protein kinase NLK (NLK, Homo sapiens, UniProt Q9UBE8)",95.9
"Serine/threonine-protein kinase MRCK alpha (CDC42BPA, Homo sapiens, UniProt Q5VT25)",101
"Tyrosine-protein kinase ITK/TSK (ITK, Homo sapiens, UniProt Q08881)",89.7
"Megakaryocyte-associated tyrosine-protein kinase (MATK, Homo sapiens, UniProt P42679)",93.4
"Serine/threonine-protein kinase TAO3 (TAOK3, Homo sapiens, UniProt Q9H2K8)",89.2
"Vascular endothelial growth factor receptor 3 (FLT4, Homo sapiens, UniProt P35916)",91.5
"cAMP-dependent protein kinase catalytic subunit PRKX (PRKX, Homo sapiens, UniProt P51817)",95.7
"PAS domain-containing serine/threonine-protein kinase (PASK, Homo sapiens, UniProt Q96RG2)",88.7
"MAP/microtubule affinity-regulating kinase 3 (MARK3, Homo sapiens, UniProt P27448)",86.1
"ALK tyrosine kinase receptor (ALK, Homo sapiens, UniProt Q9UM73)",83.1
"Cyclin-dependent kinase 3, with cyclin E (CDK3, Homo sapiens, UniProt Q00526)",86.5
"Serine/threonine-protein kinase Nek11 (NEK11, Homo sapiens, UniProt Q8NG66)",103
"Tyrosine-protein kinase Fyn (FYN, Homo sapiens, UniProt P06241)",107
"Tyrosine-protein kinase Fgr (FGR, Homo sapiens, UniProt P09769)",93.2
"Serine/threonine-protein kinase N1 (PKN1, Homo sapiens, UniProt Q16512)",101
"Insulin receptor (INSR, Homo sapiens, UniProt P06213)",101
"Serine/threonine-protein kinase 25 (STK25, Homo sapiens, UniProt O00506)",102
"LIM domain kinase 1 (LIMK1, Homo sapiens, UniProt P53667)",88.7
"Homeodomain-interacting protein kinase 1 (HIPK1, Homo sapiens, UniProt Q86Z02)",104

# Mixed results
Compound,cell line,test,measurement,value
CC(C)C(=O)N1CCN(c2nc(OC[C@@H]3CCCN3C)nc3c2CCN(c2cccc4cccc(Cl)c24)C3)C[C@@H]1CC#N,HEK293 RAS-independent,"cell growth, CellTiter-Glo",IC50,4.9 µM

# Some of these lines once more (block 3):
target,remaining activity [%]
"Tyrosine-protein kinase Fyn (FYN, Homo sapiens, UniProt P06241)",107
"RAC-alpha serine/threonine-protein kinase (AKT1, Homo sapiens, UniProt P31749)",95.8
"Serine/threonine-protein kinase N1 (PKN1, Homo sapiens, UniProt Q16512)",101
"Cyclin-dependent kinase 3, with cyclin E (CDK3, Homo sapiens, UniProt Q00526)",86.5
"cAMP-dependent protein kinase catalytic subunit PRKX (PRKX, Homo sapiens, UniProt P51817)",95.7
"MAP/microtubule affinity-regulating kinase 3 (MARK3, Homo sapiens, UniProt P27448)",86.1
"Megakaryocyte-associated tyrosine-protein kinase (MATK, Homo sapiens, UniProt P42679)",93.4
